Measured values pooled from the literature.
Every numbered part comes from another study and shows a few of its results, in no order.

Set 1 — technique: RNA Bind-n-Seq; molecule type: RNA; sample: in vitro; concentration: 365 nM; relative to: no-protein control; reading: higher = stronger binding; quantity: RBNS enrichment (R)
Target: RNA binding protein fox-1 homolog 2, RRM domain, GST-SBP tag (RBFOX2, Homo sapiens, UniProt O43251-10, residues 100-194)
Setting: natural RNA segment, single round, ends assumed
Constant ends, left off below: GGGAGUUCUACAGUCCGACGAUC … UGGAAUUCUCGGGUGCCAA
Target sequence (chain): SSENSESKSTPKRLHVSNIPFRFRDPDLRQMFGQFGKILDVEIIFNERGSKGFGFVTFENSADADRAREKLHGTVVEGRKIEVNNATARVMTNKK
UCGGCUUGGCUGGAAGACAGGGUGUGAGUGCGACAACAGGGGCACAGGUUGGGUUUGCCAAACGUCUAAUUACCAAGCCAGGAUUUGUGCCAACAAAGCCACAUGGCUGU: 0.577
CCCUUUUGUCAAAAAGGUAGAUAUUCAUAAUUGUACAUUCAGCAUUGUAAAUACCAUAUGAAAUCCUUUUUGAUUAAAGCUAUUCAAAAUAAAAAAUUUUAAUGAAUUAA: 1.43
CCUUGCUCAGCCAAGCUUGUCAGCAGCCUGUAGGAUCAUGGUUCAAGUGACAAUAAAGGAAGAAAGUAGAACACUCUUGCUUCUGCCUCUUCAGUUGGGAUCCAGUUAGU: 0.383
CUGUUGGCACCAAAAAGCUAGGUUUUGUCUACCUCAGUUCUUGUCAUACCAAUCUCUACGGGAAAGAGAGGUAGGAGAGGCUGCGAGGAAGCUUGGGUUCAAGCGUCACU: 0.548
UGUGUUGGAGACACUUCUGAAGGGCAAGUGAACAGACAUACUGUGAAGUGGCUCAACAGGAGGAGCCUGAGUUGUGGGGUCUAUGGAUGGCAACCAGCUGAUUCUGUACA: 0.894
GCCAAUUCUGAUGUCCCUUACCUUUUGGCCAAGAAGUUUGAGAUUUUUUCAGCUAAUUUGUUAUUUGACCAGAAGUUGUCUGGGGAGACUGAGUUCUUUGAGUUGCAUAU: 0.721
AAUGUCGUAAGCACAAUUAGACUUCUUCCGGCUUGAGUUUGCUGCCUCCUACAGCAAGGACAGGAAUCAGACCGACUCCCUAGCUUACGCUCUGGGAGGGGUACUGGGUA: 0.221
GUCCAACAUCAGGGAACACAAGGCUCUGAAGUGGCCCUGUGUGGAAGGUUGGCAGCUGCCUGGCCUCACUGAACCUUAGUGACAAGUCUUUGCCUCAGGAGCUGACUCAU: 0.337
CUUGCUGACCAAAAACUACUGGAGAGUAACACAGGUUAUAUGCCAUCACAAAUACAAUGCUCAUGAAGAACUGAUUUGUAGAGUCAAUGAACCUGUGUCCAGAAUUUUAA: 0.393
GAGUUAGUUACCAGCUUCCUUGAUUUCAUCUAUACACAAUGAUUAAGUGCAUUUAAUAUUGGUAAUUUAAUGAAAAGCAUUCCUUGCCCAAUGGAUGUAAACAUUUUUGA: 0.645
GCUUCCUUAUCUGGAAGCCUUUCUGGAUUAAUCCAGUGAUGGUCCCACCUUUAGUGUUUGAGCUUUGUCAUUGCUUGUCUCCCUGGCAUGUGCCAGUUAUAGACUGUCCA: 0.278
CCAAGAAGGAGAUUGAUGCAUCAGGUUCAGUUUAACCUGGAAUAUCUGACUACCCCUGAAUCCACCCAGAAAGGGGGCCCAACACCCUUGUCCAUUUAUGGGUAUUUUUU: 0.533

Set 2 — technique: protein binding microarray; molecule type: double-stranded DNA, one strand shown; sample: in vitro; concentration: not given; relative to: not given; reading: higher = stronger binding; quantity: E-score
Target: Histone acetyltransferase KAT6A, both winged helices, GST fusion (KAT6A, Homo sapiens, UniProt Q92794, residues 1-181)
Setting: 8-mer, flanks averaged, mean of 2 arrays, mostly near background
Construct (chain): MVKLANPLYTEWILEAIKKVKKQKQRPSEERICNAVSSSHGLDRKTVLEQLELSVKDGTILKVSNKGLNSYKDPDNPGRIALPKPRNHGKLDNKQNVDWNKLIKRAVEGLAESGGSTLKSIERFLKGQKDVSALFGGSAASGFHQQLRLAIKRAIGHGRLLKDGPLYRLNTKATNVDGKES
ACCCTCGA: -0.195
AGCGAGTA: 0.0734
AGCTTCTC: -0.107
AGGCGGCA: 0.138
CGTAGCGA: 0.126
CGACCGCC: 0.151
CCGTTATA: 0.128
ACTCAAGT: -0.207
CAACGTGG: 3.5e-05
AGAAGTAG: -0.191
CCGTACGA: 0.13
CGCTCGCA: 0.196
CCCTATTC: -0.197
AACGAGTG: -0.209
AGCCGTCA: 0.282
AATCTTCA: -0.075
CCCGGAGC: 0.0988
AATTGAGG: -0.21
GTGCGACA: 0.128
GTATGAAA: -0.0162
ACCGCGGC: 0.389
AGTAGCGA: 0.0129

Set 3 — technique: RNA Bind-n-Seq; molecule type: RNA; sample: in vitro; concentration: not given; relative to: input RNA pool; reading: higher = stronger binding; quantity: bound/input enrichment
Target: RING finger protein unkempt homolog, zinc fingers 1-6, GST-SBP tag (UNK, Homo sapiens, UniProt Q9C0B0, residues 30-357)
Setting: RNA with constant flanks, human-mouse chimeric sites, ends assumed
Constant ends, left off below: GGGAGUUCUACAGUCCGACGAUC … CAACAGAGGAUUGAGCAUCA
Residues (chain): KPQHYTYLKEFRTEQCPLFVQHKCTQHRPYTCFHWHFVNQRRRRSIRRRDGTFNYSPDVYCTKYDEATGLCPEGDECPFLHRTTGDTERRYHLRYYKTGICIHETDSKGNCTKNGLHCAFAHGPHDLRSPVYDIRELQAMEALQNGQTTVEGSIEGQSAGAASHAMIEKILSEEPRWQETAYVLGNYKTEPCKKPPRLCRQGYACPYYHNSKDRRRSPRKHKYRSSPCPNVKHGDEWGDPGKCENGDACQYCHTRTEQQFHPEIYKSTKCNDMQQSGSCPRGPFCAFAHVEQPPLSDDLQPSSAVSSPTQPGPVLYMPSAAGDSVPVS
AUUCCGAUUAUGGACACCGGUGAAAACCCAGAGGUGCCCUUCCCUCGGGACAUGAUUGACUUAGAGGCCAAUUUUGAGAAGAUUGAAAAUGAACUGAAGGAAAUCAACACAAACCAGGAA: 0.115 ratio
UUUCUACUGCAGCAAACGAUGCUAAGAAUUAAGGAUCCUAAGAAGUCCCUGGAUUUUUAUACUAGAGUUCUUGGACUGACCCUCCUGCAGAAGCUUGAUUUUCCCAUUAUGAAGUUCUCG: 0.414 ratio
ACACAAUAUGAGACCAACAGCAUGGACUUCAAAGUUGGGGCAGAUGGGACAGUCUUCGCCACUAGGGAGCUGCAGGUCCCCUCCGAGCAGGUGGCGUUCACGGUGACUGCGCGGGAAAGC: 0.25 ratio
GUGUCCUGCUUUCAACUUAAAUCACUGAGGCAUCUCUACUGUUCUGUUAAAAUCAGGACUGUAGCGCUGUGUCACCACAUGAGAGUUCAGAAGCAGCCUUUCUGUGGAGAGUGAGAAUGA: 0.087 ratio
AGCACAACCCCAGCAAAGCUAAGAAAUCCUUGUACAAGUGAACAAAACUGCACCAGCCCAUUUAGCUACAAAAAUGUGCUCAGUCUUACUAAUAAAGGAGAGUUUUUCAAUGAACUUGUU: 0.718 ratio
CAGGGCAUCAUCUCUCGUGCUGUUAGACACCUGUUCAAGAGUAUUGAAGAAAAAAAAACCUCAGCGAUUAAAAACGGGCUGCCCCCUCCUGAAUUCAAAGUGAAUGCCCAGUUCCUAGAG: 0.633 ratio
GACCCACAGUGGUCUGAGGAGCAACUCAUUGCUGCAAAAUUCUGUUUUGCUGGCCUUCUUAUAGGCCAGACUGAAGUGGACAUCAUGAGUCAUGCCACACAAGCUAUUUUUGAAAUUCUG: 0.151 ratio
GUAUACGGUUAUCGAGGAAAGGACUGUAGAGCUAAUGUAUACCUGCUUCCGACCGGGGAGAUAGUUUAUUUUAUCGCCUCAGUGGUAGUCCUGUUUAAUUAUGAGGAGAGGACUCAGCGA: 0.303 ratio
CUUAUGGCUGCAGAAACAGGAAGUGGCAAAACUGGUGCAUUUAGUAUUCCCGUUAUCCAGAUAGUGUAUGAAACUCUGAAAGACCAACAGGAAGGAAAGAAAGGGAAAACAACUAUUAAA: 0.82 ratio
GGGGAGAAACCUUACGAGUGUGUGCAGUGUGGGAAAUCCUACAGUCAGAGCUCAAACCUUUUUAGACAUCAGAGACGACACAAUGCAGAAAAACUUCUGAAUGUUGUGAAGGUUUAAGAA: 0.181 ratio
UCUUAACUUAUUCAUUUAACUUAUUUUUAUAGCUAGAGCAAUAUUGUUAGUCUUAGACAAUAGCUCACAUUUUUUGAGAAGCAUGCCCUCCCUAUCCAUUUGUCUUAUAACAUGACCCAG: 62.5 ratio

Set 4 — technique: competition protein-binding microarray; molecule type: double-stranded DNA, one strand shown; sample: in vitro; concentration: 2 µM; with: Cbf1 competitor, 0.05 µM; reading: higher = stronger binding; quantity: fluorescence intensity; constant ends, left off below: … GTCTTGATTCGCTTGACGCTGCTG
Target: Phosphate system positive regulatory protein PHO4, full length, GST-tagged (PHO4, Saccharomyces cerevisiae, UniProt P07270, residues 1-312)
Setting: whole 60-bp probe, lowest competitor level
Construct (chain): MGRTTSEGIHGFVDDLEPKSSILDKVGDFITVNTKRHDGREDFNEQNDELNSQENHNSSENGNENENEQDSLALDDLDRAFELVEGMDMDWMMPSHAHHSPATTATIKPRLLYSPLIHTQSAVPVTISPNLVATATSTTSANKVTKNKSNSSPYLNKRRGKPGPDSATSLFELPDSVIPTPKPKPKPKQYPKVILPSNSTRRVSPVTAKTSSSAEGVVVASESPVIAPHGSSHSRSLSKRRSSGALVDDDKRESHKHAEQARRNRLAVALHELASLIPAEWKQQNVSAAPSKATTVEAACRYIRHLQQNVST
CGTCCTAGTGATTGCCGGGTGGGTGCCATGAGGAAG: 6950 a.u.
ATATGCCAGGCAAATAACGTGTCGGTGATTGTGAAG: 8950 a.u.
GAGAGGATTGCGACCTTGTTATCATGGCATTGATGT: 4160 a.u.
GAAAAATTAATCCGACATGTGGAATATTTCCTTCCG: 8720 a.u.
CATTCGAAGCAGTGCCAAGTTCTATTGTATCATTCC: 3580 a.u.
CGGGGTTAAGTTTGTCACTGCACTTGCTTGCAGCAG: 3600 a.u.
CACTAAATTTGGAAGCTCGTGTACTCATAAACAATT: 10800 a.u.
CAACAAGCCTGTTACACCATGACAACAGATCCTTCT: 4300 a.u.
CTAACGAAGGTTTGGTGTGTGGGTGACAAGCCAAGT: 5570 a.u.
GTCTTGTCTCATTGAGACGTGGGTGTCCCCACTTCA: 6050 a.u.
AAATTACTAAGTTGGCTAGTGGGTGACGCCGTATGA: 3670 a.u.
ACCAGCGTTGGACGCGTCGTGCGGATTCGTTCTTGT: 7570 a.u.
AGGGTAACATACCATCACGTGCAAACCAGGATAATT: 20100 a.u.
CTTGTTATTTACGGCCACGGGGACACTATTATGGTT: 11600 a.u.
CGGGGTTAAGTTTGCAATGTGGGTGGCTTGCAGCAG: 6030 a.u.
GTCTTGTCTCATTGAGCCGTGGGTGTCCCCACTTCA: 5420 a.u.
CGTCCTAGTGATTTTCACGTGCCATCCATGAGGAAG: 13500 a.u.
CGTCCTAGTGATTTTCACGTGGTCTCCATGAGGAAG: 13200 a.u.
TGCGCAACAACTTGTAGTGTGGGTGTATGTCTAGAA: 5910 a.u.
ATGCGAGCGAACCGGCACATGTACCAAACTTTATCA: 10900 a.u.
GTCTTGTCTCATTGTGCGGTGGGTGTCCCCACTTCA: 5690 a.u.
TCGGAGAAAGCATCTCACGGGGAACAATTGGTTAGA: 4960 a.u.
CGTCCTAGTGATTGGATAGTGGGTGCCATGAGGAAG: 6970 a.u.
AAAGCGGTAATTTGAGGCGTGGGTGCAGATATCTAT: 8730 a.u.
CGGGGTTAAGTTTGGCCGGTGGGTGGCTTGCAGCAG: 4550 a.u.

A few entries again (set 2):
AGAAGTAG: -0.191
CGTAGCGA: 0.126
AATTGAGG: -0.21
CAACGTGG: 3.5e-05
ACCCTCGA: -0.195
GTATGAAA: -0.0162
AGCTTCTC: -0.107
AACGAGTG: -0.209
CCGTTATA: 0.128
AATCTTCA: -0.075
